Measured values pooled from the literature.
Numbered parts are unrelated; each lists some results of a single study.

Set 1
Target: RNA binding protein fox-1 homolog 2, RRM domain, GST-SBP tag (RBFOX2, Homo sapiens, UniProt O43251-10, residues 100-194)
Method: RNA Bind-n-Seq
Molecule type: RNA
Sample: in vitro
Tested at: 365 nM
Notes: natural RNA segment, single round, ends assumed
Baseline: no-protein control
Direction: higher = stronger binding
Construct (chain): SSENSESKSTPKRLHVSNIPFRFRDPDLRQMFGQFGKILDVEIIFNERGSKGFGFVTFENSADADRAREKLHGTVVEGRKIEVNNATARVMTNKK
For `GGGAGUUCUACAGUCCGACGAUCCUAACAUACUCACUGUGAACCCAGCCUAUUGCAAAAAUAAAAUCUUUUUAUAAUAUUAUCUAUGGGAUGUCAGCACAAUAUAACACUCUGGGAAGAAGUGGAGUUUUUUGUGGAAUUCUCGGGUGCCAA`, “RBNS enrichment (R)” read 0.787.
For `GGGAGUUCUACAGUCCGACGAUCCCUGGGUCUGCACUCCCUCCCCUGUGCCUGACUAAGCCUUGUUCAUUGUUCUUUCAUCCUUACAAGGGACAGCCAGCCAAGGAGGAAAGGAGCCCAGCCCUGGGGAGGUGUGGAAUUCUCGGGUGCCAA`, “RBNS enrichment (R)” read 0.491.
`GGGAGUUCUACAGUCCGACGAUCCACGCCUGUAAUCCCAGCACUUUGGGAGGCUGAGGCGGGUGGAUCACAAGGUCAGGAGAUCAAGACCAUCCUGGCUAACACGGUGAAACCCUGUCUCUACUAAAAAUACAUGGAAUUCUCGGGUGCCAA` — result for “RBNS enrichment (R)”: 0.349.
For `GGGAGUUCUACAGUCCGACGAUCCUGAAAAUACCACCCCAGGAGAGGACCUCGCCCCAAGCAAGCCAGUGAGCAGCCCUGCCAGACUACUGCCAGACUGAGAAACCCAGAAGCUGGUAGUCAUGUGGGCUUGCUGGAAUUCUCGGGUGCCAA`, “RBNS enrichment (R)” read 0.639.
Under “RBNS enrichment (R)”, `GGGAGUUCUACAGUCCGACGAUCCUGGCUUUUUCACUGAACGUAUCAGAAUACAUGGAUGAAUUGGGGUAAAUAAGGUUUUAAUUCAGAUCUAGAAGAAAGUAUUGUACGUUUGAAUGCAGAUUUUUAUCCACUGGAAUUCUCGGGUGCCAA` is recorded as 0.698.
For `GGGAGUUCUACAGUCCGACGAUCAAUGGUAACUUUAUUUAUUUAAAAACAAAGAAACACAAAUAGUUACUAUUAAACUGAUUAAGGCUGUUUAUUUUUACUCCUAGAAAUGGUCAUAUGAAGUAGAUGUGCAAUGGAAUUCUCGGGUGCCAA`, “RBNS enrichment (R)” read 1.56.
`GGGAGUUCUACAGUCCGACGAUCUGAGGAGUAAACCUCUCUGGCACACUGAGCAUGGUCAGGGCAUUGGUCAGAGGGACAGAGCAAGGAAUGCAUCCUGAGCCCACAGCUUUGACCACUGUGAUCCAGAAGAGUGGAAUUCUCGGGUGCCAA` — result for “RBNS enrichment (R)”: 0.907.
Under “RBNS enrichment (R)”, `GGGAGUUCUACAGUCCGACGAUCCUUUAUCCUGCACUCAGUACCCGAACUCACUUCAGUAUGCUUACUGAGGCCAUGAGAACCUGAGGGGCAUCUGCCCAGGACAGGAGCCAUGGCAUAUGACAAAGACCAAUUGGAAUUCUCGGGUGCCAA` is recorded as 0.339.
For `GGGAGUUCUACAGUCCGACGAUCGAACUUCAAGUAGCAGUUCAAAAGAUGUCAGUUUUUAAAAUUGUUUUUGUUGUUGUCUUGGCAGUUUUACUGAACCCUUUGCAUAAAGAACAAAAUAAAAGCUCGGCAUUUGGAAUUCUCGGGUGCCAA`, “RBNS enrichment (R)” read 0.743.
For `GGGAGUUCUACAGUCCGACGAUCUCUGGAGGCCGGGGGUUCUCAGACCUACCAGUUUCCCUUUAGAAGAACAAAUUUCCAGUUCCUCUAGGGCCUCCUGCCUUUCCUUUCUUUCUGUCAAUUUUGUUGUUGUUUGGAAUUCUCGGGUGCCAA`, “RBNS enrichment (R)” read 0.451.
Under “RBNS enrichment (R)”, `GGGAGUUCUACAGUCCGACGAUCACUGGCGUUUAUCAGGUACCUUAGAUUGGUCACUUAUACAGCUAAUUUUAUUCGUAGAAAUCAGUAGAAAAAAAAAGUCUUGGGAACCUUCCAUCUGAUUUGCCUGGCCAUGGAAUUCUCGGGUGCCAA` is recorded as 0.472.
`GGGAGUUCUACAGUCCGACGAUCCAUUAAAGAAAAUGGUUUUCUACCAUUUCGACUGGAUCAUAUCAGAAAGAUGGCAUAUCAGAUAUGCAAGUCUGUGAAUGUUUUGCACAGUAAUAAGUUGACUCACACAGUGGAAUUCUCGGGUGCCAA`: “RBNS enrichment (R)” 0.338.

Set 2
Target: Prothrombin, mature alpha-thrombin (F2, Homo sapiens, UniProt P00734)
Method: aptamer microarray, sandwich
Molecule type: DNA with 2'F-ANA
Sample: in vitro
Tested at: 200 nM
Notes: whole 15-mer aptamer, many near background
Together with: Cy3 exosite-II aptamer, 400 nM
Direction: higher = stronger binding
Strand: GGTTGGTGTGGTTGG
`2'F-ANA at 2 5 9 11 13`: “mean fluorescence intensity” 67 a.u.
For `2'F-ANA at 1 2 7 9 11 14 15`, “mean fluorescence intensity” read 53.9 a.u.
`2'F-ANA at 4 8 9 10 11 12`: “mean fluorescence intensity” 239 a.u.
For `2'F-ANA at 1 2 3 5 6 7 9 13`, “mean fluorescence intensity” read 61.5 a.u.
`2'F-ANA at 1 2 6 8 10 11`: “mean fluorescence intensity” 51.4 a.u.
For `2'F-ANA at 1 2 4 6 7 8 9 10 11 14`, “mean fluorescence intensity” read 106 a.u.
`2'F-ANA at 4 6 7 8 10 13 15` — result for “mean fluorescence intensity”: 70.8 a.u.
`2'F-ANA at 1 2 4 6 14 15` — result for “mean fluorescence intensity”: 56.5 a.u.
`2'F-ANA at 1 2 3 6 7 8 12 13 15` — result for “mean fluorescence intensity”: 443 a.u.
For `2'F-ANA at 2 3 4 5 10 11 12 13 14 15`, “mean fluorescence intensity” read 421 a.u.
Under “mean fluorescence intensity”, `2'F-ANA at 3 4 8 10 12 14` is recorded as 207 a.u.
Under “mean fluorescence intensity”, `2'F-ANA at 1 4 6 8 10 11 12 14` is recorded as 44 a.u.
Under “mean fluorescence intensity”, `2'F-ANA at 3 4 7 9 10 15` is recorded as 280 a.u.
Under “mean fluorescence intensity”, `2'F-ANA at 1 2 5 8 10 11 13` is recorded as 46 a.u.
`2'F-ANA at 2 3 5 6 8 9 10 11 12 13 14`: “mean fluorescence intensity” 51.2 a.u.
Under “mean fluorescence intensity”, `2'F-ANA at 4 7 8 9 10 13 14` is recorded as 63.9 a.u.
Under “mean fluorescence intensity”, `2'F-ANA at 2 3 5 7 8 9 10 11 12 13` is recorded as 56.9 a.u.
`2'F-ANA at 1 5 6 7 9 13 15`: “mean fluorescence intensity” 57.6 a.u.

Set 3
Target: RING finger protein unkempt homolog, zinc fingers 1-6, GST-SBP tag (UNK, Homo sapiens, UniProt Q9C0B0, residues 30-357)
Method: RNA Bind-n-Seq
Molecule type: RNA
Sample: in vitro
Tested at: not given
Notes: RNA with constant flanks, ends assumed
Baseline: input RNA pool
Direction: higher = stronger binding
Residues (chain): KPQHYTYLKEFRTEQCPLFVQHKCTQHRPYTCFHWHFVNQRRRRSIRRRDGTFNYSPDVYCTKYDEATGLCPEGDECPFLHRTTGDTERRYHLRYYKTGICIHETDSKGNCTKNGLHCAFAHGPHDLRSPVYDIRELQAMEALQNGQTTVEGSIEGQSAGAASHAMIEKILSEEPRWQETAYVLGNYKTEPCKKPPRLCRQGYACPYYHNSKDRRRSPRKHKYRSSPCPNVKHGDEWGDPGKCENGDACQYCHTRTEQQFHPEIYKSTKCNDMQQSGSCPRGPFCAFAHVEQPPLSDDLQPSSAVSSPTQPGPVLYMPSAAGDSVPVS
With `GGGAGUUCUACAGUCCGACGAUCCCAGUAGAACCACAAGGGACUUCGGGUGCCACUCAGCAAGAUACUGCCAAAGGUGACCAACCCGAAAGAGUUUCUAAUGGACCUGUGUUAACUCUGGGUGGGUCACCGUCCACAAGCAGUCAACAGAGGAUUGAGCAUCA` the bound/input enrichment was 0.0947 ratio.
For `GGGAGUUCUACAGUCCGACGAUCAAUUCAGGUAACUUCAAAAGUUCAUCAGAUAGAAACCCUCCACUCAGCCCUCAGUCCUCUACCGACCGUGAGUUAAGUGCUUCAGAAUUAGAUGAAGAUUCAAUUGGAUCCAACUAUAAGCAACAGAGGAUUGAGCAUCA`, the bound/input enrichment was 0.274 ratio.
For `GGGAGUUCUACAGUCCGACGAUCUAUCUGAAUGACUUGGACCGUGUAGCCGACCCUUCCUAUCUGCCUACACAACAAGACGUGCUCCGAGUUCGAGUCCCCACUACAGGGAUCAUCGAAUACCCCUUUGACUUACAAAGUGUCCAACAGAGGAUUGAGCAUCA`, the bound/input enrichment was 0.125 ratio.
For `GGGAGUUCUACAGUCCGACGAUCGAGUUUAGUUAACUUAUAGUCAGCACAUAGUAGUAAGUAUGUUUAUCCCUGUGUUCUCUAACCCGGAAGUCUGGCUUUAAAGGUUUUUUAAAGUUUCCUCUAAUAUUUUGAUCAAAGGUCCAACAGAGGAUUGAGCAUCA`, the bound/input enrichment was 2.9 ratio.
The bound/input enrichment of `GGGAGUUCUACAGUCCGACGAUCGAAGUUUGUAUCAAUCCAUACCACUAUAAGAGAGUGGAGAGUCCAGUCUUACCUCCAGUAUCCGUGCCUCGUCACAAUGAAUUCAAUCCACAACACAGCCUUCUGGUUCAGUUCAGGAACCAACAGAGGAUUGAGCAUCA` is reported as 0.204 ratio.
With `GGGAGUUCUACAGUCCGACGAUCACUACGCUGCGACAACGCAGAAAGCCAGUCUUCCACUUGUCCCAUGAGGAACGUGUCCAACACCGAAAUAUUAAAGACCUUAAACUGGCCUUCAGUGAGUUCUACCUCAGUCUAAUCCUGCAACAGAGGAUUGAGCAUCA` the bound/input enrichment was 0.115 ratio.
The bound/input enrichment of `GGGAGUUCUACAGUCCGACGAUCCUCAGCCUGGGCGGCAACCAGCUGCAGAGCAUCCCCGCCGAGAUCGAGAACUUGCGGAGUUCCGAAUGUUUAUACCUUGGAGGAAACUUCAUUAAAGAAAUCCCACCAGAAUUAGCAAAUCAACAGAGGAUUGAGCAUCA` is reported as 0.825 ratio.
With `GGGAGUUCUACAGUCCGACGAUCUUUUCUUUUGGAGGCGGAUUGUUUGAUGAUAUGUUUGAAGACAUGGAGAAAAUGUUUUCUUUCCGUGGCUUUGAUACCACCAAUCGACACACAGUACAGACUGAAAAUAGAUUUCAUGGACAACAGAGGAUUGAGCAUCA` the bound/input enrichment was 0.144 ratio.
The bound/input enrichment of `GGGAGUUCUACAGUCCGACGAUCAGCGGUGGGAACCACAUUGGCGGGUCUGGGUUGGGGUUAAAGGGAGAUUGGAGAUUUGAUUCCGGACCACAAAAAGGCUUUGUGGCUAACAUGGCGUGGCCGUGCAUCACAAGGGCCUGCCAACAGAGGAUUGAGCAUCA` is reported as 0.157 ratio.
`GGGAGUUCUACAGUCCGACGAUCAGUUUUUCUGCUUCCAAAAUAUUUAUUUCUGCAUUAGCCAUGGAAGGACAGCAACUUUCCGCCGCAUAUCCUUGCGCUUUGUUAUAUGGAGUCUUUGCCCUGAUUUCCGUCUUUUGAAAACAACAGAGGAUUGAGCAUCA` gave a bound/input enrichment of 0.397 ratio.
`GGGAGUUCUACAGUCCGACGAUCAUGGUGCAGAACGUGAGCUUCAAAUAUACGAAAGACGGGCCUUGCAUCUACAAUAAUCCCGAAUUUGGUAUUGAUCUUGACACACGAGUGGCUCUGGUAGGACCCAAUGGAGCAGGGAAGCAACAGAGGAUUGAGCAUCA` has a bound/input enrichment of 0.456 ratio.

Set 4
Target: Histone acetyltransferase KAT6A, winged helix 1, GST fusion (KAT6A, Homo sapiens, UniProt Q92794, residues 1-85)
Method: protein binding microarray
Molecule type: double-stranded DNA, one strand shown
Sample: in vitro
Tested at: not given
Notes: 8-mer, flanks averaged, mean of 2 arrays, mostly near background
Baseline: not given
Direction: higher = stronger binding
Residues (chain): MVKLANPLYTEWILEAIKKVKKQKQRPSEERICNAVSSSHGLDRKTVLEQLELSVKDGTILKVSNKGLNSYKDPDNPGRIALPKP
`GATGATGA` has an E-score of -0.15.
With `ACACGCGA` the E-score was 0.102.
For `CAAATGGC`, the E-score was -0.0187.
`AGGAGTCA` has an E-score of -0.278.
`TCTCCGCA` gave an E-score of 0.161.
With `ACAGGTAA` the E-score was -0.157.
With `GATGGCTA` the E-score was -0.0264.
`AATTCGAC` has an E-score of -0.113.
For `ACGGGACC`, the E-score was 0.287.
The E-score of `GCGCATCA` is reported as 0.263.
The E-score of `GATAAATC` is reported as -0.0326.
`AATCCCGT` gave an E-score of 0.329.
For `ACATCTAG`, the E-score was -0.16.
The E-score of `GCCTACAC` is reported as -0.057.
`AACGTCCA` gave an E-score of -0.139.
With `CACCTATC` the E-score was -0.144.
For `CGGCGCGA`, the E-score was 0.415.
`AAGAGTTA` gave an E-score of -0.346.
The E-score of `CCCATACC` is reported as 0.108.
For `ATGCCCCC`, the E-score was -0.0222.
With `CCGGAGCG` the E-score was 0.352.
`GTCAACAC` gave an E-score of -0.125.
With `CTTGGTAC` the E-score was 0.000105.
`GGCACTAA` gave an E-score of -0.0577.
The E-score of `CGTATCAA` is reported as 0.0763.
